{"data": "Results collected from several papers", "note": "Numbered parts are unrelated; each lists some results of a single study."}
{"data": "Sample 1", "target": "Ras GTPase-activating protein-binding protein 1, C-terminal RGG region (G3BP1, Homo sapiens, UniProt Q13283)", "technique": "RNA Bind-n-Seq", "form": "RNA", "medium": "in vitro", "concentration": "1 µM", "setting": "whole 134-nt RNA, ends assumed", "added": "150 mM KCl", "baseline": "input library", "direction": "higher = stronger binding", "sequence of UniProt Q13283 (whole entry, looked up)": "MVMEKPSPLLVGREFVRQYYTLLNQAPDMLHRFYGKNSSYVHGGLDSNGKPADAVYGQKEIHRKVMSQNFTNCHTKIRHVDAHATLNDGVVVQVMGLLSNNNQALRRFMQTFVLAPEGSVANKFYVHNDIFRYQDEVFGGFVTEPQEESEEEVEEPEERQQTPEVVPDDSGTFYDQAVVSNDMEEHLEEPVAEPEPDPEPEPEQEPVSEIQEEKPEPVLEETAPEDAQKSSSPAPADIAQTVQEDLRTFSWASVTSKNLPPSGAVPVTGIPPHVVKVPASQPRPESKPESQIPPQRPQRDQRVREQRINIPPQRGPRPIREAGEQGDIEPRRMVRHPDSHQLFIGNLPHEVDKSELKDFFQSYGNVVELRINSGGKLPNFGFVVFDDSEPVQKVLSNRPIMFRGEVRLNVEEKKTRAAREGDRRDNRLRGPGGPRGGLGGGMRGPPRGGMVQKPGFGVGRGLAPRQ"}
{"Oligonucleotide": "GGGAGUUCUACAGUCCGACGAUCCUCAAGUCCUGUGCUACACAUCGUAUGUACCGAAUCGGAAAAAAAGGAGGAGGAAAGUAUUAUGUUACGCCGUUCGGAUCUGCACUUCCAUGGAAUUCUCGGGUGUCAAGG", "log2 enrichment": -1.39}
{"Oligonucleotide": "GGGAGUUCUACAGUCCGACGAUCUCCCAAUGCUCGGAGGAAGCCCAAGGGCAGCCCUCGUGUACCUGAUGCCAAGAAGCCUAAACCCAAGAAAGUAGCUCCCCUGAAAAUCAAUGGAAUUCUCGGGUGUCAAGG", "log2 enrichment": -0.441}
{"Oligonucleotide": "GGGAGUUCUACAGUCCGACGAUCUGGCAGCGGCCAUGGACCGCUUCGUUUGGACCAGCGGCCUCCUGGAGAUCAACGAGACCCUGGUGAUCCAGCAGCGCGGGGUGCGAAUCUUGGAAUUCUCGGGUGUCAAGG", "log2 enrichment": -1.24}
{"Oligonucleotide": "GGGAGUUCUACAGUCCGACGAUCUCCUCAAGUCCUGUGCUACACAUCGUAUGUACCGAAUCGGAGGAGGAGGGGAAAGUAUUAUGUUACGCCGUUCGGAUCUGCACUUCCAGCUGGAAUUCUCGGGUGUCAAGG", "log2 enrichment": -1.24}
{"Oligonucleotide": "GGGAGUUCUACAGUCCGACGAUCUAACUUUAGAGGAGGAUCUGAUGGAUAUGGCAGUGGACGUGGAUUUGGGGAUGGCAAUAAUGGGUAUGGAGGAGGACCUGGAGGUGGCAAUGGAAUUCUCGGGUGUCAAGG", "log2 enrichment": -0.909}
{"Oligonucleotide": "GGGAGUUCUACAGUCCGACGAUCCUCAAGUCCUGUGCUACACAUCGUAUGUACCGAAUCGGUUGGGUUGGGGUUGGAAAGUAUUAUGUUACGCCGUUCGGAUCUGCACUUCCAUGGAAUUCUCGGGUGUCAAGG", "log2 enrichment": -0.599}
{"Oligonucleotide": "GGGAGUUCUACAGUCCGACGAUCUUUGCAGGAUUAAUCACUCCUGAAGAUCGGAAAUAUGGAACAACAAAUCUUCACUUAGAUGUAUCUGAUGCAGCUAAUGUCAUGGUCUAUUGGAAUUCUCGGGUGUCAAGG", "log2 enrichment": -2.32}
{"Oligonucleotide": "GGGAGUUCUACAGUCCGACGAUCAGUCCUGUGCUACACAUCGUAUGUACCGAAUCGGGGUUUUUGGGGUGGGGUUUGGGGAAAGUAUUAUGUUACGCCGUUCGGAUCUGCACUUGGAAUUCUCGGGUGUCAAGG", "log2 enrichment": 1.23}
{"Oligonucleotide": "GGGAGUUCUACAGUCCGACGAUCCACAGACAACACGCACCCACACAGACACAGAGGGAAGGGGUUGGGAUGGGGACAGGGUAAACAGCAGGGCGGGGUAGGACCCCAGCCCCUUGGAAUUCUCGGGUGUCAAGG", "log2 enrichment": -0.429}
{"Oligonucleotide": "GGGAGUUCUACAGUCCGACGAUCAGUCCUGUGCUACACAUCGUAUGUACCGAAUCAAACCCAAACCCCCCCAAAUUUAAAAAAGUAUUAUGUUACGCCGUUCGGAUCUGCACUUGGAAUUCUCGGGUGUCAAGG", "log2 enrichment": -1.01}
{"data": "Sample 2", "target": "RNA binding protein fox-1 homolog 2, RRM domain, GST-SBP tag (RBFOX2, Homo sapiens, UniProt O43251-10, residues 100-194)", "technique": "RNA Bind-n-Seq", "form": "RNA", "medium": "in vitro", "concentration": "365 nM", "setting": "natural RNA segment, single round, ends assumed", "baseline": "no-protein control", "direction": "higher = stronger binding", "Target sequence (chain)": "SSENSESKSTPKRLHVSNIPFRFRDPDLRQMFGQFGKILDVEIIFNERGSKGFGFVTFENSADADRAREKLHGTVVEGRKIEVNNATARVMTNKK"}
{"Oligonucleotide": "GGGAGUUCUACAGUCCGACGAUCCCUCUCGGAGCAGGGAGCUCACCUUCCGCGACGUGUUCUGAGGGUCUGCAUCUUAGGGGGGAGGGCUGGGGCAAAUCGCCACCUGUGCCUUUCCUCUGGCCCUGCUGCCCUGGAAUUCUCGGGUGCCAA", "RBNS enrichment (R)": 0.338}
{"Oligonucleotide": "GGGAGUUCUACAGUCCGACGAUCUCUCGUGAAAUUCUCACUGAAAGCCACAUUCUUAGCCUAAGGCAUUUCAUCUUUUAUGAUAUAAAAUGAUGGCUAUCAAAUGAUUUUCCAUACAUUGUACUGAUCAAGUUUGGAAUUCUCGGGUGCCAA", "RBNS enrichment (R)": 0.331}
{"Oligonucleotide": "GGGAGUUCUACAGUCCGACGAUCAUUCAAACUGACCUGCAUCCAUCCAAAACAAAUUCCUCCUUCAACCUUAUUUUUACUUGAAAUUUGCUAGAAGAAAUAGCAAACCGAAAUUUGUUUUAUGCAUGAGUUAAUGGAAUUCUCGGGUGCCAA", "RBNS enrichment (R)": 5.82}
{"Oligonucleotide": "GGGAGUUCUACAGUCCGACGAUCACCUCCUGGCUAUUUUUGAUGAGAAUGAGCUUGAGCUGCUGAUGUGUGGGACUGGAGACAUCAAUGUAUCUGACUUCAAAGCCCAUGCUGUAGUGGUUGGUGGAUCCUGGUGGAAUUCUCGGGUGCCAA", "RBNS enrichment (R)": 0.898}
{"Oligonucleotide": "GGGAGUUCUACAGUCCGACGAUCUGAAGCAGCCAGGGUCUCCUUGCCCUGGCCUUGGCCUUCCCUAGACUGUGUGGGGCUCAGCAUUGGGAGGGGUUGCACAUGUCCCAGCCUUUGGCCCCCUUACUUUUCAGUGGAAUUCUCGGGUGCCAA", "RBNS enrichment (R)": 2.49}
{"Oligonucleotide": "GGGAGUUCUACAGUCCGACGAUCAUUUUUUCCCCAUUUUUCAGAAGCGACAUUUCAUAUAUAGGUGCCAAAAGUGAAUCGGGGUGCGGAGAGUGGGAACCUUUUGAAUUUAUGAUUGUCACAGAGAUGGUAGAUGGAAUUCUCGGGUGCCAA", "RBNS enrichment (R)": 1.08}
{"Oligonucleotide": "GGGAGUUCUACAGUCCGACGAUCGCCCACCAGGGGAUCAAACCCCUGCUGAUCUUGAUAUCAUAUUUCUGUCAUUUGCCAGUUGAUGGAGCCAAGUUGACCUUUGGUUCUGGUGCUUCACCCAGUUUGGAACUUGGAAUUCUCGGGUGCCAA", "RBNS enrichment (R)": 0.29}
{"Oligonucleotide": "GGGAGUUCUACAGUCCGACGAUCAUACCACCAUUUCAUCUGGCUAGUUCACCAUCACAACUGCAUUACCAAAAGGGGAUUUUUGAAAACGAGGAGUUGACCAAAAUAAUAUCUGAAGAUGAUUGCUUUUCCCUUGGAAUUCUCGGGUGCCAA", "RBNS enrichment (R)": 0.632}
{"Oligonucleotide": "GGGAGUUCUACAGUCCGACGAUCCUUAAAUUGCUUUAAUUGUCAUCAAUAAAAACAAAUAUGAAAAACCCUAGUUUAAAAAGCGGUUCAAGAAUAAUGUAAACUUAUACAUAUAGCUUAUUUUCUUCAUUUACUGGAAUUCUCGGGUGCCAA", "RBNS enrichment (R)": 0.491}
{"Oligonucleotide": "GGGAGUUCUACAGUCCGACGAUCUCAUCUGAUGUAAAACCAUCCCAGAGCUGGCGAGAGGAUGGAGCUGGGUGGAAACUGCUUUGCACUAUCGUUUGCUUGGUGUUUGUUUUUAACGCACAACUUGCUUGUACUGGAAUUCUCGGGUGCCAA", "RBNS enrichment (R)": 0.721}
{"Oligonucleotide": "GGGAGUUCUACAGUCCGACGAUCUGUUGUCGUCGUUGUUUUGAGACGGAGUCUUGCUCAGGUGCCCCGGAGUGCAGUGGUGCAAUCUCAGCUCACUGCAACCUCCACCUCCUGGGUUCAAGCAAUUCUCCUGCUGGAAUUCUCGGGUGCCAA", "RBNS enrichment (R)": 0.409}
{"Oligonucleotide": "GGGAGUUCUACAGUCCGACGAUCGACUUUUGGGGAUAGAUCUGUCUGGGAGAUAAUGUGAGUCCAGGAGGCAUUACUCUUCCCUGCCUCACAUCAAGGUGCCAUUCAGGUAGUUGGCUCCCAGCUACUUAACGUGGAAUUCUCGGGUGCCAA", "RBNS enrichment (R)": 0.282}
{"data": "Sample 3", "target": "Histone acetyltransferase KAT6A, winged helix 2, GST fusion (KAT6A, Homo sapiens, UniProt Q92794, residues 85-181)", "technique": "protein binding microarray", "form": "double-stranded DNA, one strand shown", "medium": "in vitro", "concentration": "not given", "setting": "8-mer, flanks averaged, mean of 2 arrays, mostly near background", "baseline": "not given", "direction": "higher = stronger binding", "Residues (chain)": "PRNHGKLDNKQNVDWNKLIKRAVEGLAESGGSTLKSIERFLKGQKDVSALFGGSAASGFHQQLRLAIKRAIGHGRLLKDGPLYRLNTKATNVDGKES"}
{"Oligonucleotide": "GCCCACGC", "E-score": 0.056}
{"Oligonucleotide": "CGAAAGAC", "E-score": "9.5e-05"}
{"Oligonucleotide": "CATGGACC", "E-score": -0.116}
{"Oligonucleotide": "CTTTGTGC", "E-score": 0.0846}
{"Oligonucleotide": "TGTCATAA", "E-score": -0.119}
{"Oligonucleotide": "ATGCACCG", "E-score": 0.0325}
{"Oligonucleotide": "AACGTGTC", "E-score": -0.202}
{"Oligonucleotide": "CGTTCTTA", "E-score": 0.0525}
{"Oligonucleotide": "AGGCGGGC", "E-score": 0.125}
{"Oligonucleotide": "TCGTAGAA", "E-score": -0.0352}
{"Oligonucleotide": "ACCAGACG", "E-score": 0.0286}
{"Oligonucleotide": "AACTCTGA", "E-score": 0.137}
{"Oligonucleotide": "CCCTAGTA", "E-score": -0.0985}
{"Oligonucleotide": "GCAAAGAC", "E-score": 0.0371}
{"Oligonucleotide": "AAATACAT", "E-score": -0.0818}
{"Oligonucleotide": "ATAACTTA", "E-score": 0.0712}
{"Oligonucleotide": "AGCACAAT", "E-score": 0.059}
{"data": "Sample 4", "target": "Interferon regulatory factor 5, full length, phosphomimetic (IRF5, Homo sapiens, UniProt Q13568-2, residues 1-514, S451D/S453D/S456D/S462D)", "technique": "protein-binding microarray", "form": "double-stranded DNA, one strand shown", "medium": "in vitro", "concentration": "940 nM top", "setting": "60-bp whole probe", "added": "salmon DNA 0.4 mg/ml", "baseline": "random background probes", "direction": "higher = stronger binding", "constant ends, left off below": "GCCTAGCAC … GTCTTGATTCGCTTGACGCTGCTG"}
{"Oligonucleotide": "GGCGGTATCCTTATCCTGACGTGCTAG", "fitted relative affinity": "0.216 z-score"}
{"Oligonucleotide": "TCATCATTATTGTGTCAAACTGTGCTA", "fitted relative affinity": "0.503 z-score"}
{"Oligonucleotide": "GACGAGCTCAGTCTCGAGACGTGCTAG", "fitted relative affinity": "0.765 z-score"}
{"Oligonucleotide": "TTAGGTTCCCTTTTCTTTTAGTGCTAG", "fitted relative affinity": "0.915 z-score"}
{"Oligonucleotide": "TTAGGACTGCTACTGCGTTAGTGCTAG", "fitted relative affinity": "-0.643 z-score"}
{"Oligonucleotide": "TTAGGTATCCTACTGCTTGAGTGCTAG", "fitted relative affinity": "-0.134 z-score"}
{"Oligonucleotide": "GACGGATTCGGTTTCGGGACGTGCTAG", "fitted relative affinity": "4.86 z-score"}
{"Oligonucleotide": "TTAGGTTTCGGGTAGCGGTTAGTGCTA", "fitted relative affinity": "10.9 z-score"}
{"Oligonucleotide": "TCAAATTAGTGTTTCCCACTGTGCTAG", "fitted relative affinity": "-0.271 z-score"}
{"Oligonucleotide": "TTAGTTCTCCTTTTCCTTTAGTGCTAG", "fitted relative affinity": "1.94 z-score"}
{"Oligonucleotide": "TTAGATTTCAGTATCGGTTAGTGCTAG", "fitted relative affinity": "6.24 z-score"}
{"Oligonucleotide": "TTAGGACCGGGGTATCGGTTAGTGCTA", "fitted relative affinity": "2.77 z-score"}
{"Oligonucleotide": "CCATTTTGTGTTTTCATTTTGTGCTAG", "fitted relative affinity": "1.41 z-score"}
{"Oligonucleotide": "TTAGGACTGCTTATCCTTTTGTGCTAG", "fitted relative affinity": "-0.106 z-score"}
{"Oligonucleotide": "TTAGGTATCCTTCTCCTATAGTGCTAG", "fitted relative affinity": "0.937 z-score"}
{"Oligonucleotide": "TTAGGTAACGACACTGGGTTAGTGCTA", "fitted relative affinity": "-0.0765 z-score"}
{"Oligonucleotide": "TTAGGTCTCGGTTTCGTTTAGTGCTAG", "fitted relative affinity": "7.66 z-score"}
{"Oligonucleotide": "GACGGACTGGACACAGGGGACGTGCTA", "fitted relative affinity": "-0.64 z-score"}
{"Oligonucleotide": "GACGGACTGCGTATCGGGACGTGCTAG", "fitted relative affinity": "-0.0461 z-score"}
{"Oligonucleotide": "TTAGATCTCGGTTTCGGTTAGTGCTAG", "fitted relative affinity": "8.72 z-score"}
{"Oligonucleotide": "GACGGTTTACTTTCCCTGACGTGCTAG", "fitted relative affinity": "0.976 z-score"}
{"Oligonucleotide": "GACGGTTTCAGACTGGAGACGTGCTAG", "fitted relative affinity": "1.32 z-score"}
{"Oligonucleotide": "TCACATACTGATTTCCAACTGTGCTAG", "fitted relative affinity": "0.723 z-score"}
{"Oligonucleotide": "GACGGTCTCGGACTGGGGATGTGCTAG", "fitted relative affinity": "0.783 z-score"}
